Earlier results as cited in several papers.
Each numbered part shows a few of the values that one paper quotes. pKd: −log10 of the molar value.

Series 1 — Substance: melittin; measurement: MIC
Enterococcus faecalis; KCTC 3511; literature value: 3.1 µM
Acinetobacter baumannii; ATCC 19606; literature value: < 3.1 µM
Escherichia coli; ATCC 25922; literature value: 12.5 µM
Bacillus subtilis; KCTC 3068; literature value: < 3.1 µM
Enterobacter sp.; KCTC 2625: < 3.1 µM

Single results of other studies
B1: CCL4; sequence looked up; chain APMGSDPPTACCFSYTARKLPRNFVVDYYETSSLCSQPAVVFQTKRSKQVCADPSESWVQEYVYDLELN
B2: CX3CL1, human; sequence looked up; chain QHHGVTKCNITCSKMTSKIPVALLIHYQQNQASCGKRAIILETRQHRLFCADPKEQWVKDAMQHLDRQAAALTRNGGTFEKQIGEVKPRTTPAAGGMDESVVLEPEATGESSSLEPTPSSQEAQRALGTSPELPTGVTGSSGTRLPPTPKAQDGGPVGTELFRVPPVSTAATWQSSAPHQPGPSLWAEAKTSEAPSTQDPSTQASTASSPAPEENAPSEGQRVWGQGQSPRPENSLEREEMGPVPAHTDAFQDWGPGSMAHVSVVPVSSEGTPSREPVASGSWTPKAEEPIHATMDPQRLGVLITPVPDAQAATRRQAVGLLAFLGLLFCLGVAMFTYQSLQGCPRKMAGEMAEGLRYIPRSCGSNSYVLVPV
B1 (CCL4)  pKd (US28 wild type; binding, radioligand competition): 8.77
enfortumab vedotin  Vdss (rat): 0.04 to 0.1 L/kg
CCL3  pKd (US28 Y16F; binding, radioligand competition): 7.92
[3H]Neurotensin  pKd (NTS receptor; binding, radioligand binding; forebrain membranes): 8.01
B2 (CX3CL1, human)  pKd (US28 T12A; binding, radioligand competition): 9.40
CCL5  pKd (US28 E13A; binding, radioligand competition): 8.77

Some of these lines once more (series 1):
Bacillus subtilis; KCTC 3068; literature value: < 3.1 µM
